Measured values from different studies.
Every numbered part comes from another study and shows a few of its results, in no order. Changes are numbered by the printed parent chain.
UniProt O00762, sequence (whole entry, looked up): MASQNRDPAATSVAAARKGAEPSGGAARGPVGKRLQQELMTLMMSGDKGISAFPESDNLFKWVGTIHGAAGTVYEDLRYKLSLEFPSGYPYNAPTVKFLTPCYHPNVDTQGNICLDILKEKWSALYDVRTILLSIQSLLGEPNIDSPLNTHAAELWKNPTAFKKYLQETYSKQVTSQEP
UniProt Q712K3, sequence (whole entry, looked up): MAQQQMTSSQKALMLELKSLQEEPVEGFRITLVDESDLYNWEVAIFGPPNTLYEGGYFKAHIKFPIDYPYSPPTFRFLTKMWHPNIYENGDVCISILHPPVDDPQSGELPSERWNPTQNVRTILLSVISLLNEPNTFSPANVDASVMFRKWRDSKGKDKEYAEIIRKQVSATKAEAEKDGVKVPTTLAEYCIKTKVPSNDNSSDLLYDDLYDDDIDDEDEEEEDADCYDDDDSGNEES
UniProt Q9Y385, sequence (whole entry, looked up): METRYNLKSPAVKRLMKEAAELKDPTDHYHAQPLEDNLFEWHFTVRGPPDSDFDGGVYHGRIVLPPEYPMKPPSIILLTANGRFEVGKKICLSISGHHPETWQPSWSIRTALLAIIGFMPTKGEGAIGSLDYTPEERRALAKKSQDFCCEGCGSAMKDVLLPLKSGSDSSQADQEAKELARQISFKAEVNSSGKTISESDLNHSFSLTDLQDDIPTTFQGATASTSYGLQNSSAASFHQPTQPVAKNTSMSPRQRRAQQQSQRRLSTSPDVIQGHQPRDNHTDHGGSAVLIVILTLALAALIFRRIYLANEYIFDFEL
UniProt Q9NPD8, sequence (whole entry, looked up): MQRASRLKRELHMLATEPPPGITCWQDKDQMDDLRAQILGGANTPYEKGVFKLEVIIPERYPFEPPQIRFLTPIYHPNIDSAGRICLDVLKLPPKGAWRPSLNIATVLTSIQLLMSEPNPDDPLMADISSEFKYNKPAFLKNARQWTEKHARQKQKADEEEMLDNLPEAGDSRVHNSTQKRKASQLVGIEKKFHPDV
UniProt P51668, sequence (whole entry, looked up): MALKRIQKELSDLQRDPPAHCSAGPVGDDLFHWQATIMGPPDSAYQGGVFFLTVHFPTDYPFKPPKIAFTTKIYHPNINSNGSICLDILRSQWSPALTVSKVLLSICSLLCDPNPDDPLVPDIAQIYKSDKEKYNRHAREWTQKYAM
UniProt P63146, sequence (whole entry, looked up): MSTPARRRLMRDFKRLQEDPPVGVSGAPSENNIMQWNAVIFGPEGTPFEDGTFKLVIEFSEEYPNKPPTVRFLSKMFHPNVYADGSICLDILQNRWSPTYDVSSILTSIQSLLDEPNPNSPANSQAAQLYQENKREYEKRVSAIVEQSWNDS
UniProt Q8N2K1, sequence (whole entry, looked up): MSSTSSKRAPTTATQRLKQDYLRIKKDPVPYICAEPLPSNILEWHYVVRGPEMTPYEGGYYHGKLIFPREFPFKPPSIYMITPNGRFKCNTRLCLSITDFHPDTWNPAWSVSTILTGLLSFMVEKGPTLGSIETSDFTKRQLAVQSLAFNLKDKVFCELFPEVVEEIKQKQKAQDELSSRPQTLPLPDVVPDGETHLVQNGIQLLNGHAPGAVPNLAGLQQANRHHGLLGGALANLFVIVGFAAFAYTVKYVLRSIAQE
UniProt Q9H832, sequence (whole entry, looked up): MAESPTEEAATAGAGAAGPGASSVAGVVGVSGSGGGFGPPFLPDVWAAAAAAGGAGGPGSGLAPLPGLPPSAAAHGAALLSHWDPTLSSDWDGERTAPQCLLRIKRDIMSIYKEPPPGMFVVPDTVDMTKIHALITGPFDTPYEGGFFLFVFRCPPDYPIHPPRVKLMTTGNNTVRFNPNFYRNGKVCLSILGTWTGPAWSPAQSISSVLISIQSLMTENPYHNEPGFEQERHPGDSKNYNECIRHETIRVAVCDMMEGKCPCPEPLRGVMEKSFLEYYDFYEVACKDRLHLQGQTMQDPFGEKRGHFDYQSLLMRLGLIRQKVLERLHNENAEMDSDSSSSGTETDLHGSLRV
UniProt P61081, sequence (whole entry, looked up): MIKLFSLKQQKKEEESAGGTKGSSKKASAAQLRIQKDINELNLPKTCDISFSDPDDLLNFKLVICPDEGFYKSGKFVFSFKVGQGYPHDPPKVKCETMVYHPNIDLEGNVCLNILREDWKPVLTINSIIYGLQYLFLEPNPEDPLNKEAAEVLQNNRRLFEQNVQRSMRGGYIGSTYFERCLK
UniProt Q969T4, sequence (whole entry, looked up): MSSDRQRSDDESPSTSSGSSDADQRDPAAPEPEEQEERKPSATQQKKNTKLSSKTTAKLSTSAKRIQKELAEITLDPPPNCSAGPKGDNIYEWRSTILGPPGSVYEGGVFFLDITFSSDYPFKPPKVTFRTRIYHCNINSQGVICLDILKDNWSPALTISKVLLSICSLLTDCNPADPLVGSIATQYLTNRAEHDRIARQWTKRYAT
UniProt Q9C0C9, sequence (whole entry, looked up): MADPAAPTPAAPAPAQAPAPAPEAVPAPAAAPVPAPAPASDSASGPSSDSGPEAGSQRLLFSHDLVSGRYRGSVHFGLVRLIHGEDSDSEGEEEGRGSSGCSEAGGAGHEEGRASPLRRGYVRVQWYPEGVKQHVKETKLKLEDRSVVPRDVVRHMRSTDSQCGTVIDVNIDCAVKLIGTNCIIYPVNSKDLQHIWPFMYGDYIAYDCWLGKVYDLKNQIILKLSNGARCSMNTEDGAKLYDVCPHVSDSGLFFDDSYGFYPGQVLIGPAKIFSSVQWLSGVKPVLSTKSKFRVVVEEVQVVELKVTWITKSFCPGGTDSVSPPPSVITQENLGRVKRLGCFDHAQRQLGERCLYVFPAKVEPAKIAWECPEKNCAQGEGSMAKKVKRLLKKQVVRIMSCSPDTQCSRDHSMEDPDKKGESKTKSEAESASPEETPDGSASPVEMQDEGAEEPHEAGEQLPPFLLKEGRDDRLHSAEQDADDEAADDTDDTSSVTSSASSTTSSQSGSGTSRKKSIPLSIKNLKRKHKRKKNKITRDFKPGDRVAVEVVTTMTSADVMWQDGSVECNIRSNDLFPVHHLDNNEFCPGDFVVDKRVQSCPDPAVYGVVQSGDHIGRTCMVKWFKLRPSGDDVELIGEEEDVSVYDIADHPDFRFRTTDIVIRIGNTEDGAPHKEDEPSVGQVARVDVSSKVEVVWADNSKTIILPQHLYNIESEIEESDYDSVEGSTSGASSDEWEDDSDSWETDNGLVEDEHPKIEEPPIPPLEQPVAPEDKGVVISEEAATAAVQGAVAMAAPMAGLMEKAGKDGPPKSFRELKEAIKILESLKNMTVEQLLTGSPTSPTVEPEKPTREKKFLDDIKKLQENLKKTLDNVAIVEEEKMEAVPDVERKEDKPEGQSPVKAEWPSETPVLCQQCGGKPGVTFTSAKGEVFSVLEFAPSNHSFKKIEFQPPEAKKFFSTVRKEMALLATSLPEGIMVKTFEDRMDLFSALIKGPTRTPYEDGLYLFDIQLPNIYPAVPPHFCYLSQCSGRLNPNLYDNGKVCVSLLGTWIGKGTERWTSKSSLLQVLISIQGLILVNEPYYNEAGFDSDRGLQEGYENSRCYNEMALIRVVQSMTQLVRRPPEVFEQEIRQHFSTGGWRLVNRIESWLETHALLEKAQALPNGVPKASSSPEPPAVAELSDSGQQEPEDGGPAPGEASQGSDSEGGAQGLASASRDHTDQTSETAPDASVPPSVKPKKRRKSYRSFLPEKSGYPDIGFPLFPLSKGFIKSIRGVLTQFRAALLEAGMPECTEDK
UniProt Q7Z7E8, sequence (whole entry, looked up): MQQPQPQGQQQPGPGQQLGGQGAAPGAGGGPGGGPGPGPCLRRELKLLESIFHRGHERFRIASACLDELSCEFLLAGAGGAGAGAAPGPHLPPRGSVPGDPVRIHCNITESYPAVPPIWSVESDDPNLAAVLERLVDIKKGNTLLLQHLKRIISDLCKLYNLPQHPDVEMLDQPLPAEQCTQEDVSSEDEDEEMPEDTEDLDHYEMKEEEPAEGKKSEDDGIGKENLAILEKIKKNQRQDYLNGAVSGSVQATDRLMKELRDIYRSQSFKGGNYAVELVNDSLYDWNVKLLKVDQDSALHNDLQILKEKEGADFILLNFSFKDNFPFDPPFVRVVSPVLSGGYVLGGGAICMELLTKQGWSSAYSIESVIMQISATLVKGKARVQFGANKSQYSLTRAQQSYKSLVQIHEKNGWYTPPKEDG

Sample 1
Target: Phosphate system positive regulatory protein PHO4, full length, GST-tagged (PHO4, Saccharomyces cerevisiae, UniProt P07270, residues 1-312)
Method: competition protein-binding microarray
Molecule type: double-stranded DNA, one strand shown
Medium: in vitro
Concentration: 2 µM
Notes: whole 60-bp probe, lowest competitor level
Together with: Cbf1 competitor, 0.05 µM
Direction: higher = stronger binding
All sequences stand within: … GTCTTGATTCGCTTGACGCTGCTG
Target sequence (chain): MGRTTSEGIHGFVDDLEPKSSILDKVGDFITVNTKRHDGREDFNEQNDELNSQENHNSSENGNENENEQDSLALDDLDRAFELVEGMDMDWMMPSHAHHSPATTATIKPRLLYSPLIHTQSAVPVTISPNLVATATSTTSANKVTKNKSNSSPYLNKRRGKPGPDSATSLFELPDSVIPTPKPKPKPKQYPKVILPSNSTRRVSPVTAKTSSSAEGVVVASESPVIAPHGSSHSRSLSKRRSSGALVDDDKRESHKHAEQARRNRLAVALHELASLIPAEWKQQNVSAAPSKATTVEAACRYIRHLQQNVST
Sequence | fluorescence intensity
CTTTCCCGATCTTGGCCTGTGGGTGTAGCACATTTG | 4700 a.u.
CGTCCTAGTGATTGCGCCGTGGGTGCCATGAGGAAG | 7230 a.u.
CGGGGTTAAGTTTTTCACGTGGTCTGCTTGCAGCAG | 11900 a.u.
GCGTCTGCTCCCCATCACGATACCCGAGGTGCAGGC | 5340 a.u.
TGCTGTAAGCAAAAGCACGGGTGGCCAAAGCAAAGG | 8440 a.u.
GCATTGATCAATTTGCACGATGGAAAATTTTTCACT | 8640 a.u.
GTCTTGTCTCATTGTCACTGGACTTTCCCCACTTCA | 4140 a.u.
AAATTACTAAGTTGGTTAGTGGGTGACGCCGTATGA | 3800 a.u.
GCCTTACATATTTGTCATGCTTTGACTATTGCTATC | 5150 a.u.
CGGGGTTAAGTTTGTCCTGTGGGTGGCTTGCAGCAG | 5660 a.u.
CTTCTGTAAATTTGGCTCGTGGGTGGACGCGCCCCG | 8540 a.u.
TGCGCAACAACTTGTTTCGTGGGTGTATGTCTAGAA | 5450 a.u.
ATGCCCGACCGTACCGACGTGGCAATATTTTTGGGA | 5430 a.u.
TTTTCTAAGCTTTGTCGCGTGAGATCGCTTCTCATT | 5010 a.u.
TGCGCAACAACTTGCCCCGTGGGTGTATGTCTAGAA | 10700 a.u.
CAACCGGCCTAGCATCACATGCTGATACCACTTGTA | 9220 a.u.
TTATCTGACGTCCATCACGTGAAGTGTTTTGCGTAG | 13800 a.u.
ATACCCTCAATTGGGCTCGTGTTGAGCAAGTTAAAC | 10300 a.u.
CTAACGAAGGTTTGCAGAGTGGGTGACAAGCCAAGT | 3500 a.u.

Sample 2
Target: ABI1, truncated, D143A, DHFR fusion (Arabidopsis thaliana)
Method: DHFR PCA, deep sequencing
Medium: yeast
Notes: methotrexate growth selection, single substitutions
Together with: (+)-ABA 0.032 µM
Relative to: wild-type fitted maximum
Direction: higher = stronger binding
Parent: PYL1, truncated, DHFR fusion (Arabidopsis thaliana); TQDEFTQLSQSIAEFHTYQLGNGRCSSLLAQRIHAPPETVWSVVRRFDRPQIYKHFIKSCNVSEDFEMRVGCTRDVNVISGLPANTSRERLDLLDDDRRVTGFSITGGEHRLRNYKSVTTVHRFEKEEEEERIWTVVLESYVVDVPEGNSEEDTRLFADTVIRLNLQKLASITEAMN
Substitution | relative binding score
T154M | 1.45%
Y53Q | -4%
P37V | 11.2%
V161L | 61.6%
R74C | 3.05%
K54E | 1.61%
T119H | -3.47%
K116R | 36.3%
R69K | 55.7%
V100F | 1.23%
H110Q | 42.2%
V100T | 1.22%
Q51R | 2.44%
G23V | 2.94%
V137D | -6.08%
G148E | 1.43%

Sample 3
Target: CCNA2, cyclin fold, Cln2 fusion (human)
Method: yeast growth competition, sequencing
Medium: yeast
Notes: weak parent motif
Relative to: not given
Direction: higher = stronger binding
Parent: CDC42EP1 docking peptide (human); SLVVGKLSFDSSP
Substitution | normalised enrichment score
SLVVGKASFDSSP [L7A] | -0.29
SLVVGKLSADSSP [F9A] | -0.529
SLVVGKLAFDSSP [S8A] | -0.00496
SLVVGKLSFDSSA [P13A] | 0.117
SAVVGKLSFDSSP [L2A] | 0.278
SLVVGKLSFDSAP [S12A] | 0.197

Sample 4
Target: JUNB, bZIP domain (human)
Method: DHFR protein complementation
Medium: yeast
Notes: single substitutions, most at no-binding floor
Relative to: wild-type JUN-FOS pair
Direction: higher = stronger binding
Parent: JUN, bZIP domain (human); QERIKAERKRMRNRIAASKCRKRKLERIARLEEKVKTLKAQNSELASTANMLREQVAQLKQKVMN; partner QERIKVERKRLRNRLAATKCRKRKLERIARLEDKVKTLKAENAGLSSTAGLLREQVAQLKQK
Substitution | binding fitness
L45V | -1.53 natural log
E54Q | -1.18 natural log
L38Y | -1.55 natural log
K34F | -1.09 natural log
Q55Y | -1.52 natural log
S47R | -0.839 natural log
E54W | -1.46 natural log
K36C | -1.29 natural log
Q55K | -1.26 natural log
A49M | -1.25 natural log
S43P | -1.52 natural log
E32V | -1.28 natural log
A49H | -1.44 natural log
R30W | -1.17 natural log
K36L | -1.31 natural log
A46T | -0.96 natural log
K34W | -1.27 natural log
Q55P | -1.53 natural log
L52S | -1.55 natural log

Sample 5
Target: RNA binding protein fox-1 homolog 2, RRM domain, GST-SBP tag (RBFOX2, Homo sapiens, UniProt O43251-10, residues 100-194)
Method: RNA Bind-n-Seq
Molecule type: RNA
Medium: in vitro
Concentration: 365 nM
Notes: natural RNA segment, single round, ends assumed
Relative to: no-protein control
Direction: higher = stronger binding
All sequences stand within: GGGAGUUCUACAGUCCGACGAUC … UGGAAUUCUCGGGUGCCAA
Construct (chain): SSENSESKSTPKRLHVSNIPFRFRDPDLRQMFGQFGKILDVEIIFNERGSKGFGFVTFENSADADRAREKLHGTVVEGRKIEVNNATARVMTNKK
Sequence | RBNS enrichment (R)
GCAAGGAUUCAGCACCAGUUAUGUUUGAAUGAACCCUCCUUUUCUCUGAGAUUCUGGUCCCUGGAAAUCCCUUUCUGCUAGUGGUGAGCAUGUAAGUGUUAAGUUUUUAA | 5.47
CUGGAAAGACAUCUCCAAGGUGAGGUCCACCCCCACAGCAGACCUCAAGUAGAAAUUGCCCAAUUUUUACCAGCUGGAGGGACACCCUUGGGUUUUUGUACGAAGCUAUU | 0.427
UCCUUUGUGUUCAACAGUUAAUCAAAACCAGAGAGUCUAGGGCAGCCUCUCUGAUGUUGUCAAUGAUGUAAAUUCAGUCCCUGGUUUUUAAUUUUCUGUCUGAUGUCACA | 0.385
AAUCACCUGAAGAAGGUGAACCCCUGCUAACCGGGGUGAAGAUGAGCCACCUUCCCAUCCCAGCACCAGAGACUGCAGUUUCCCUCAGUCCUCCACCCUCCCACUGCCGC | 0.652
UCAAGAAGAUUAAAAAACUGAUGCUUUUUUGGGAUGGAAUUGGACACAGCCCAAGGAGGAAAUGAUCACAGCUGGGGUUGAAGGCUUCACCUGCACAUCACUGCACAGAC | 0.684
GGUGAGGAGGAGCACCUGGGCUCUCUACCCCUCUCCUCACAGAAGUACCUGAAACUAGGUCUGGGGCACUCCCAAUGCAGCGCCUUGUCAGCCAAGGUGGGCAGGCAGGG | 0.745
CGCCACCAUCAGGCUGCCGCUUCCUAACUUAUUAACCGGGCAGUGCCCGCCAUGCAUCCUUGAUGUUUGCCGCCUGGCGGCUGAGCCCUUAGCCUCGCUGUAGAGACUUC | 1.39
AGAUGAGGACAUCCUCUUUGUCUACUUGGACAGCUGACAGCAGGAGCCUGGUGCGCCUAGGCCCUCGGACCCCAUCCCCACCCCAGCCGGGCCCGCUCAGGAUGCCCUGG | 0.217

Sample 6
Sequence: NTAPSLTVPECAICLQTCVHPVSLPCKHVFCYLCVKGASWLGKRCALCRQEIPEDFLDK (RNF146 RING domain (UniProt Q9NTX7))
Method: yeast two-hybrid
Medium: yeast
Notes: mostly zero background
Relative to: not given
Direction: higher = stronger interaction
target | lacZ reporter activity
UBE2J1 UBC core domain (UniProt Q9Y385) | 0
UBE2D1 UBC core domain (UniProt P51668) | 0
UBE2E3 UBC core domain (UniProt Q969T4) | 0
UBE2T UBC core domain (UniProt Q9NPD8) | 0
UBE2J2 UBC core domain (UniProt Q8N2K1) | 0
UBE2C UBC core domain (UniProt O00762) | 0
UBE2I UBC core domain (UniProt P63279) | 0
UBE2B UBC core domain (UniProt P63146) | 0
UBE2M UBC core domain (UniProt P61081) | 0
UBE2R2 UBC core domain (UniProt Q712K3) | 0
UBE2Z UBC core domain (UniProt Q9H832) | 0
UBE2Q1 UBC core domain (UniProt Q7Z7E8) | 0
UBE2O UBC core domain (UniProt Q9C0C9) | 0
